Published values pooled from the literature.
Protocols differ between the studies behind these lines. ± marks the error that the study gave.
Cell line: K562

SMILES	assay	setting	quantity	value
COc1cccc2c1C(=O)c1c(O)c3c(c(O)c1C2=O)C[C@@](O)(C(=O)CO)C[C@@H]3O[C@H]1C[C@H](N)[C@H](O)[C@H](C)O1	CellTiter-Blue	10 µM, 48 h	growth inhibition	78%
COc1cc(C(=O)c2oc3ccccc3c2N)cc(OC)c1OC	cell growth or viability		IC50	8.29 µM
CC(C)C[C@H](NC(=O)[C@H](CCCCN)NC(=O)[C@H](CS)NC(=O)[C@H](CC(C)C)NC(=O)[C@@H](NC(=O)[C@@H](NC(=O)[C@H](CO)NC(=O)[C@H](Cc1ccccc1)NC(=O)[C@@H]1CCCN1C(=O)[C@H](Cc1c[nH]c2ccccc12)NC(=O)[C@H](Cc1c[nH]cn1)NC(=O)[C@H](CC(=O)O)NC(=O)CNC(=O)[C@H](CCCNC(=N)N)NC(=O)[C@H](C)NC(=O)[C@@H](N)Cc1ccc(O)cc1)[C@@H](C)O)C(C)C)C(=O)N[C@H](C(=O)N[C@@H](CCCNC(=N)N)C(=O)O)C(C)C	cell adhesion	15 min preincubation, with: P2Y2 93-110 peptide beads	IC50	30 ± 15 µM
C[C@H]1[C@H](OC(=O)CCC(=O)O)O[C@@H]2O[C@@]3(C)CC[C@H]4[C@H](C)CC[C@@H]1[C@@]24OO3	cell growth or viability, resazurin	10 µM, 48 h	inhibition	49.2%
CC[C@@]1(O)C(=O)OCc2c1cc1n(c2=O)Cc2cc3ccccc3nc2-1	cell growth or viability, MTT	48 h	IC50	0.08 µM
N.N.[Cl][Pt][Cl]	cell growth or viability, MTT	72 h	IC50	9.7 µM
N.N.[Cl][Pt][Cl]	cell growth or viability, resazurin		IC50	5.77 µM
COc1cc(C(=O)c2oc3c(OC)cccc3c2N)cc(OC)c1OC	cell growth or viability		IC50	0.725 µM
CCCCCCCCCC(=O)N[C@@H](Cc1ccccc1)C(=O)N[C@H](C(=O)NCC(=O)N[C@H](C(=O)N[C@@H](CC(C)C)C(=O)N[C@H](C(=O)N1CCC[C@H]1C(=O)N[C@@H](CC(C)C)C(=O)N[C@@H](C)C(=O)N[C@@H](CC(C)C)C(=O)NCC(=O)N[C@@H](C)C(=O)N[C@@H](CC(C)C)C(=O)N[C@H](C(=O)N[C@@H](CCCCN)C(=O)N[C@@H](CC(C)C)C(=O)N[C@@H](Cc1ccccc1)C(=O)N[C@@H](CCCCN)C(N)=O)[C@@H](C)O)[C@@H](C)CC)[C@@H](C)O)[C@@H](C)CC	cell growth or viability, CCK-8	24 h	IC50	5.76 µM

A few entries again:
SMILES	assay	setting	quantity	value
CC[C@@]1(O)C(=O)OCc2c1cc1n(c2=O)Cc2cc3ccccc3nc2-1	cell growth or viability, MTT	48 h	IC50	0.08 µM
